Measured values pooled from the literature.
Each line is one published result; not all experiments were run side by side.

With O=C(O)CN1CCN(CC(=O)O)CCN(C(CCC(=O)NCc2ccc(NC(=S)NCCOCCOCCOCCNC(=O)CCCc3ccc(I)cc3)cc2)C(=O)O)CC1 (stereo not drawn) the logD was 0.22 (shake flask; PBS; pH 7.4).
CCNC(=O)C1OC(n2cnc3c(N)nc(C(=O)NCCNC(=O)NC4CCN(c5ccccn5)CC4)nc32)C(O)C1O (stereo not drawn) has a logD of 0.3 (shake flask; aqueous buffer; pH 7.4).
The logD of O=C(NCCNCCO)c1cn(Cc2ccccc2)c2c(Cl)c(OCc3ccc(C(F)(F)F)cc3)c(Cl)cc2c1=O is reported as greater than 3 (shake flask; PBS; 2 h, pH 7.4).
CC[C@@H](C)N([11CH3])C(=O)c1nc(-c2ccccc2Cl)c2ccccc2n1 has a logD of roughly 3.5 (shake flask; aqueous buffer; pH 7.4).
The logD of Cc1ccccc1-c1cc(N2CCN(C)CC2)ccc1N(C)C(=O)C(C)(C)c1cc(C(F)(F)F)cc(C(F)(F)F)c1 is reported as 5.06 (shake flask; aqueous buffer; pH 7).
The logD of O=[11C](N1CCC(CNS(=O)(=O)c2ccc(Cl)cc2)CC1)n1cncn1 is reported as 1.85 (shake flask; PBS; pH 7.4).
For N#Cc1cc(C(=O)OCCF)c(C(F)(F)F)nc1N1CCN(C(=O)Cc2ccccc2)CC1, the logD was 2.08 (shake flask; PBS; pH 7.4).
With COc1ccc(S(=O)(=O)N2CCc3ccccc3C2)cc1N1CCN(C(=O)c2ccc(F)cc2C(F)(F)F)CC1 the logD was 6.3 (pH 7.4).
COc1cc(/C=C/C(=O)/C=C(O)/C=C/c2ccc(OCC(=O)N3CCOCCOCCOCCOCCOCC3)c(OC)c2)ccc1OCC(=O)N1CCOCCOCCOCCOCCOCC1 has a logD of 2.7 (shake flask; aqueous buffer; 12 h, pH 7.4).
With Cc1ccc(S(=O)(=O)OCCOC(=O)c2cc(C#N)c(N3CCC(C(=O)NS(=O)(=O)c4ccc(Cl)s4)CC3)nc2C(F)(F)F)cc1 the logD was 1.54 (shake flask; PBS; pH 7.4).
CCC(=O)N1CCN(c2ccc(N(C)C(=O)C(C)(C)c3cc(C(F)(F)F)cc(C(F)(F)F)c3)c(-c3ccccc3C)c2)CC1 has a logD of 4.99 (shake flask; aqueous buffer; pH 7).
With CCNC(=O)C1OC(n2cnc3c(NCC(c4ccccc4)c4ccccc4)nc(NCCc4ccc(CC[N+](C)(C)C)cc4)nc32)C(O)C1O (stereo not drawn) the logD was 0.1 (shake flask; aqueous buffer; pH 7.4).
With CCn1cc(C(=O)NCCNCCO)c(=O)c2cc(OCc3ccc(C(C)(C)C)cc3)c(Cl)cc21 the logD was less than 3 (shake flask; PBS; 2 h, pH 7.4).
For Cc1ccc(N2C(=O)c3ccccc3NC23C(=O)N(C)c2ccc(Br)cc23)cc1 (stereo not drawn), the logD was 3.4 (shake flask; aqueous buffer; pH 7.4).
For COc1cc(-c2cncc(-c3ccc(C4CCN(C)CC4)cc3)c2C)cc(OC)c1OC, the logD was 2.64 (shake flask; aqueous buffer; pH 7.4).
For COc1cc(/C=C/C(=O)/C=C(O)/C=C/c2ccc(OCC(=O)N3CCOCCOCCOCCOCC3)c(OC)c2)ccc1OCC(=O)N1CCOCCOCCOCCOCC1, the logD was 2.8 (shake flask; aqueous buffer; 12 h, pH 7.4).
CCNC(=O)C1OC(n2cnc3c(N)nc(NCCNC(=O)Nc4ccncc4)nc32)C(O)C1O (stereo not drawn) gave a logD of less than -0.1 (shake flask; aqueous buffer; pH 7.4).
With C[n+]1cc2cc3cc(ccc31)NC(=O)CCCCC(=O)Nc1ccc3c(c1)cc(c[n+]3C)C(=O)Nc1ccc3[nH]cc(c3c1)CCNC2=O the logD was -0.9 (shake flask; aqueous buffer; pH 7.4).
For COc1cc(-c2cncc(-c3ccc(N4CCNCC4)cc3)c2C)cc(OC)c1OC, the logD was 2.76 (shake flask; aqueous buffer; pH 7.4).
The logD of CC(C)(C)c1nc(-c2ccc(NC(=O)c3cccs3)cc2Cl)no1 is reported as greater than 5 (shake flask; PBS; 4 h, pH 7.4).
CCn1cc(C(=O)NCCNCCO)c(=O)c2cc(OCc3ccc(C(F)(F)F)cc3)c(C(F)(F)F)cc21 has a logD of less than 3 (shake flask; PBS; 2 h, pH 7.4).
O=C1CCCCC(=O)Nc2ccc3oc(cc3c2)C(=O)NCc2cccc(c2)CNC(=O)c2cc3cc(ccc3o2)N1 gave a logD of 2 (shake flask; aqueous buffer; pH 7.4).
CCNC(=O)C1OC(n2cnc3c(NCC(c4ccccc4)c4ccccc4)nc(NCCNC(=O)Nc4cc[n+](C)cc4)nc32)C(O)C1O (stereo not drawn) gave a logD of 0 (shake flask; aqueous buffer; pH 7.4).
C[n+]1cc(C(=O)NCc2cccc(CNC(=O)c3cc4ccccc4[n+](C)c3)c2)cc2ccccc21 has a logD of -0.6 (shake flask; aqueous buffer; pH 7.4).
CCNC(=O)C1OC(n2cnc3c(NCC(c4ccccc4)c4ccccc4)nc(C(=O)NCCNC(=O)NC4CCN(c5ccccn5)CC4)nc32)C(O)C1O (stereo not drawn) has a logD of 3.6 (shake flask; aqueous buffer; pH 7.4).
For O=C(Nc1ccc(-c2noc(C3CC3)n2)c(Cl)c1)c1cccs1, the logD was 4.3 (shake flask; PBS; 4 h, pH 7.4).
CCNC(=O)C1OC(n2cnc3c(NCC(C)C)nc(NCCNC(=O)Nc4ccncc4)nc32)C(O)C1O (stereo not drawn) has a logD of 1.8 (shake flask; aqueous buffer; pH 7.4).
The logD of Cc1ccc(N2Cc3cc(NC(=O)N4CCN(c5ccc(F)cc5)CC4)ccc3C2=O)cc1 is reported as less than 5 (shake flask; aqueous buffer; pH 7.4).
For CCNC(=O)C1OC(n2cnc3c(NCC(c4ccccc4)c4ccccc4)nc(NCCNC(=O)Nc4ccncc4)nc32)C(O)C1O (stereo not drawn), the logD was 3.5 (shake flask; aqueous buffer; pH 7.4).
With O=C1CCCCC(=O)Nc2ccc3ncc(cc3c2)C(=O)NCc2cccc(c2)CNC(=O)c2cnc3ccc(cc3c2)N1 the logD was 2.3 (shake flask; aqueous buffer; pH 7.4).

Repeated from above:
CC[C@@H](C)N([11CH3])C(=O)c1nc(-c2ccccc2Cl)c2ccccc2n1 has a logD of roughly 3.5 (shake flask; aqueous buffer; pH 7.4).
The logD of Cc1ccccc1-c1cc(N2CCN(C)CC2)ccc1N(C)C(=O)C(C)(C)c1cc(C(F)(F)F)cc(C(F)(F)F)c1 is reported as 5.06 (shake flask; aqueous buffer; pH 7).
The logD of O=[11C](N1CCC(CNS(=O)(=O)c2ccc(Cl)cc2)CC1)n1cncn1 is reported as 1.85 (shake flask; PBS; pH 7.4).
For N#Cc1cc(C(=O)OCCF)c(C(F)(F)F)nc1N1CCN(C(=O)Cc2ccccc2)CC1, the logD was 2.08 (shake flask; PBS; pH 7.4).
With COc1ccc(S(=O)(=O)N2CCc3ccccc3C2)cc1N1CCN(C(=O)c2ccc(F)cc2C(F)(F)F)CC1 the logD was 6.3 (pH 7.4).
